Measured values collected from several papers.
Protocols differ between the studies behind these lines. Several values in a cell are separate wells, animals, samples, runs or records.
SIRT2: NAD-dependent protein deacetylase sirtuin-2 (SIRT2, Homo sapiens, UniProt Q8IXJ6)
Sequence of UniProt Q8IXJ6 (whole entry, looked up): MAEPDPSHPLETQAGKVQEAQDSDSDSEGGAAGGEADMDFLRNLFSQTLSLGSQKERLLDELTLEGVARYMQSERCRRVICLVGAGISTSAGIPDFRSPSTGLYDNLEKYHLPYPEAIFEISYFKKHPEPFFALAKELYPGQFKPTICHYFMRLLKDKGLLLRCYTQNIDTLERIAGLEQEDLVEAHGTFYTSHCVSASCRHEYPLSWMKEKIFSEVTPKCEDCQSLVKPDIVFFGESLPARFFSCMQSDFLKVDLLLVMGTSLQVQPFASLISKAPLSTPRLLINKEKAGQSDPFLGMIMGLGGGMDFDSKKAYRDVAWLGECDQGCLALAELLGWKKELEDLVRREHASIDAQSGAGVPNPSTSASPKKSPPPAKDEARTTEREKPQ
Sequence of UniProt P16389 (whole entry, looked up): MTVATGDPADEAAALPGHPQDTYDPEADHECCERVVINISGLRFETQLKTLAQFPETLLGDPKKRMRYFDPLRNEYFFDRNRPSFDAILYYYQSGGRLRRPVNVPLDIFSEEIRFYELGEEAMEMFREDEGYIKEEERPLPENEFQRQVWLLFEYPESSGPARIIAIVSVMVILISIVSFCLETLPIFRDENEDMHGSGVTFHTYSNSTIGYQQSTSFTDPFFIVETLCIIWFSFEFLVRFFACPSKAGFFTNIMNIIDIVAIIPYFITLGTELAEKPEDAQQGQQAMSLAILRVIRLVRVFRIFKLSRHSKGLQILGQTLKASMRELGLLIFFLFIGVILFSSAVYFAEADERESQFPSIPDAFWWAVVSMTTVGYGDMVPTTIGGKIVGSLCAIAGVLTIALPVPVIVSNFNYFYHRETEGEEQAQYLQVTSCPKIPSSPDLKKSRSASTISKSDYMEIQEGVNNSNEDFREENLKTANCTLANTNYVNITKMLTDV
Sequence of UniProt Q06187 (whole entry, looked up): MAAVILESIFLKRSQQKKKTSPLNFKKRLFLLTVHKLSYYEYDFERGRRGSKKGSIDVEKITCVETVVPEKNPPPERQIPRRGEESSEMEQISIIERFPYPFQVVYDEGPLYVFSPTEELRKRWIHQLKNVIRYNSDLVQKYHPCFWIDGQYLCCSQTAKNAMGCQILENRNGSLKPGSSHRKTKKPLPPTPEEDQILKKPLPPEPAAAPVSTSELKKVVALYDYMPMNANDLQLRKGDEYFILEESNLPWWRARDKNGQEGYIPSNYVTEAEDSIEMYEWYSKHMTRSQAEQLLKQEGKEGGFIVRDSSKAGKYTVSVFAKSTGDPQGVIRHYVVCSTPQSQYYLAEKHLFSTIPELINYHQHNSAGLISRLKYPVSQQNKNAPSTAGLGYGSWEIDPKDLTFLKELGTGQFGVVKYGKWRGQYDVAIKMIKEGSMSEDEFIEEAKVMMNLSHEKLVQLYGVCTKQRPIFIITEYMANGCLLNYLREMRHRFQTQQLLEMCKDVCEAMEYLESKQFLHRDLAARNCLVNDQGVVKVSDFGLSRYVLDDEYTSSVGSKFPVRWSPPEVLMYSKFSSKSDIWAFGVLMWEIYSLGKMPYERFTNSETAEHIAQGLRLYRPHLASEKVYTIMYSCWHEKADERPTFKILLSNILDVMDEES
Sequence of UniProt Q923J1 (whole entry, unmodified, looked up): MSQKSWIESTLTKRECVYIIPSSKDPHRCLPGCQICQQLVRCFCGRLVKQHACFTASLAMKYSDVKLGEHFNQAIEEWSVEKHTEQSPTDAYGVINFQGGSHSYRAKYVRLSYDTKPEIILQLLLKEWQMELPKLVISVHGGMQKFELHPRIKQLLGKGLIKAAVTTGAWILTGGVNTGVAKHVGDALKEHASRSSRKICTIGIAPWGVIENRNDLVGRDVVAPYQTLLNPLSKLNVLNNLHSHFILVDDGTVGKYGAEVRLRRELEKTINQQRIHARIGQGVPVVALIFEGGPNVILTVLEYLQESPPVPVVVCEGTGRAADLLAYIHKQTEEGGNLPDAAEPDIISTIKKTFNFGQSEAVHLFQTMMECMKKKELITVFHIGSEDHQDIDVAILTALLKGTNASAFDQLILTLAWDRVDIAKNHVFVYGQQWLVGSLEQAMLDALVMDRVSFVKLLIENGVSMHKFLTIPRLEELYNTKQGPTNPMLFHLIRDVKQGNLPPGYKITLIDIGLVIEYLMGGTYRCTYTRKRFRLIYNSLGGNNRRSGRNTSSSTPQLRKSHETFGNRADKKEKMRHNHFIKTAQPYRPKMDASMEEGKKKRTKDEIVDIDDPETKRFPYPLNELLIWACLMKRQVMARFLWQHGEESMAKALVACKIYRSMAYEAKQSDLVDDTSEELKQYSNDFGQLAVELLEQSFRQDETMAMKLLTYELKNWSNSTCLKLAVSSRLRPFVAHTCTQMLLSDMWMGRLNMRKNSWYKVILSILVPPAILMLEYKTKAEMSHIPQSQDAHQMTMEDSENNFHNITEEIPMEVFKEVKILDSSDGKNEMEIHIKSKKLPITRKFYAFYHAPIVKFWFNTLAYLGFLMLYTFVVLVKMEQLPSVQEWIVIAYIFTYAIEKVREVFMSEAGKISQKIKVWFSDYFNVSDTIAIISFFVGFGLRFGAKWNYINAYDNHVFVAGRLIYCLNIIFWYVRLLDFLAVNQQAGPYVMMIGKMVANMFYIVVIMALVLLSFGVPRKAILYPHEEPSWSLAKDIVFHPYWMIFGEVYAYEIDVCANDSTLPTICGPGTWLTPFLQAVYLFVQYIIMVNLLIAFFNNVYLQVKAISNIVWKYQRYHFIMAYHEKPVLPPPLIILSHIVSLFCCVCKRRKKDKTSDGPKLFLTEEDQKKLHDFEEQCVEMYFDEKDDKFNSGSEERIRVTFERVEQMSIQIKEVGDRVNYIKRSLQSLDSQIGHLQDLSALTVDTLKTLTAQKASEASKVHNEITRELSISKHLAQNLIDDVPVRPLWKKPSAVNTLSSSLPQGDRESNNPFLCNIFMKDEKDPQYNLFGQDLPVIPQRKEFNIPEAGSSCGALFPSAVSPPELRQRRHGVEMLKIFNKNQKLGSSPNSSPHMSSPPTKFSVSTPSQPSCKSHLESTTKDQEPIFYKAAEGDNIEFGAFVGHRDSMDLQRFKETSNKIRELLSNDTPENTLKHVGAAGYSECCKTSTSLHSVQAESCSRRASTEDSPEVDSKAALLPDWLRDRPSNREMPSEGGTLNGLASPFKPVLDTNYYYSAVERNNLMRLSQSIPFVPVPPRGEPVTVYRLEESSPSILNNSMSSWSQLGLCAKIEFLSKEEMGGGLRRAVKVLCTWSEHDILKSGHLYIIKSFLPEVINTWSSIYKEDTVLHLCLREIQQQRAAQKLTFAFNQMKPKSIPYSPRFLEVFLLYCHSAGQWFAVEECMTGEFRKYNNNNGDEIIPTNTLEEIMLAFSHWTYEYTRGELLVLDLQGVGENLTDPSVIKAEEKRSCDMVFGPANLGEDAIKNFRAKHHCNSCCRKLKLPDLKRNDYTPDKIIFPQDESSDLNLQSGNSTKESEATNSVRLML
Sequence of UniProt P43219 (whole entry, looked up): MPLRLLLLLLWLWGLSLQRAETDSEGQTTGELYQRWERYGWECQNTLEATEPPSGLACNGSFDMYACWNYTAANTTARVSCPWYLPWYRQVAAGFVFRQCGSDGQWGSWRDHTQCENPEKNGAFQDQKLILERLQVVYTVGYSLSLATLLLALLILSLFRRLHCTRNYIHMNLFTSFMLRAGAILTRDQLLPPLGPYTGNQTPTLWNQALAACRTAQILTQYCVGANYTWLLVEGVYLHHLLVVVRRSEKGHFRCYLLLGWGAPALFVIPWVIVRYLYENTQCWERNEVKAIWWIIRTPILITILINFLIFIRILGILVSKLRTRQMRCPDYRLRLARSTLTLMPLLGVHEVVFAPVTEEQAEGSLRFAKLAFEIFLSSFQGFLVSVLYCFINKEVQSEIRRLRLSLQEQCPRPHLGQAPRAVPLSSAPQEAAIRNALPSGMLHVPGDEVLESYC
Sequence of UniProt P28062 (whole entry, looked up): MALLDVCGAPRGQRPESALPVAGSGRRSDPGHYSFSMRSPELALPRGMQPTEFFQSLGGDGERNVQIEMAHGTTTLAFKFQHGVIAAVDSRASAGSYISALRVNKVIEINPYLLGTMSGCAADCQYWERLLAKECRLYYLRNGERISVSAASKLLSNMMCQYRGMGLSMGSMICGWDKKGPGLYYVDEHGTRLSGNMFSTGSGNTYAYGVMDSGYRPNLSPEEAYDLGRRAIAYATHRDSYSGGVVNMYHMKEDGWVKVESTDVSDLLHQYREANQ
Sequence of UniProt P04818 (whole entry, looked up): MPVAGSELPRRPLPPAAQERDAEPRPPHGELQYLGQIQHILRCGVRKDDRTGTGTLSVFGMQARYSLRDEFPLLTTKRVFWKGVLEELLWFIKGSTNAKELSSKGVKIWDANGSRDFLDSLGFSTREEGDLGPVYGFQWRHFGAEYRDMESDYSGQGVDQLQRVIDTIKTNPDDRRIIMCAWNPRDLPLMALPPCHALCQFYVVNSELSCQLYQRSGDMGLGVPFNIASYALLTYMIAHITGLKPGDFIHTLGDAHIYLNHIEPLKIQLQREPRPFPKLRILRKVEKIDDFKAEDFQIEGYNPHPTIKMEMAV
Sequence of UniProt C7C422 (whole entry, looked up): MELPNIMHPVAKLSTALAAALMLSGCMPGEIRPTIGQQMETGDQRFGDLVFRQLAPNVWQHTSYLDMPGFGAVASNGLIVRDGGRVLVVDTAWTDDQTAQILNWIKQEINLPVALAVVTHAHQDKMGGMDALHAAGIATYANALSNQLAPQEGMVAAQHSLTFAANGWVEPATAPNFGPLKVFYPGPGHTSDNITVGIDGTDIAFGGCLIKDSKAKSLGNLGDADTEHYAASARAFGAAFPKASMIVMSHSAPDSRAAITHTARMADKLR
Sequence of UniProt P20618 (whole entry, looked up): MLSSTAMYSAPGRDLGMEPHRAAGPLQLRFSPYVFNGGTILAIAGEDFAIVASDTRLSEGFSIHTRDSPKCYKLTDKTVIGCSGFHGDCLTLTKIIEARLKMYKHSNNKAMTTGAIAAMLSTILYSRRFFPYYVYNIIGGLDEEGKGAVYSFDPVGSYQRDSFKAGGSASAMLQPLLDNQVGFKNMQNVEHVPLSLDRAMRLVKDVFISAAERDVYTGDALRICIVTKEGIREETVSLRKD

OC[C@H]1[C@@H](O)[C@@H](O)CN1Cc1ccncc1 — IC50 (Golgi alpha-mannosidase IIb (Drosophila melanogaster, UniProt Q9VF33); pH 6.0, 0.5 mM CoCl2, added: 2 mM pNP-Man): 770000 nM
O=C(N[C@@H](Cc1coc2ccccc12)B(O)O)[C@@H]1C[C@H]2CC[C@@H]1O2 — IC50 (Proteasome component C5/PSMB8 (Homo sapiens, UniProt P20618+P28062); enzyme activity in cells, inhibitor): 4.4 nM
CCC1(CC)C(=O)N(c2cccc(CN3CCN(Cc4ccc(Br)cc4)CC3)c2)C1=O — IC50 (DPP9 (Homo sapiens, UniProt Q86TI2); cell-free assay, inhibitor): 409 nM
N=C(NCCCCC(N)C(N)=O)NCCCSCC1OC(n2cnc3c(N)ncnc32)C(O)C1O (stereo not drawn) — IC50 (PRMT1 (Homo sapiens, UniProt Q99873); enzyme activity, inhibitor, fluorescence): 3000 nM
CN(C)c1ccc2c(c1)C(=O)N(C(C(=O)O)C(C)(C)S)C2=O (stereo not drawn) — IC50 (blaNDM-1 (Klebsiella pneumoniae, UniProt C7C422); enzyme activity, inhibitor; pH 7): > 150000 nM
N=C(N)NCCC[C@@H]1NC(=O)[C@H](Cc2c[nH]c3ccccc23)NC(=O)[C@H](CCCNC(=N)N)NC(=O)[C@H](Cc2c[nH]c3ccccc23)NC(=O)[C@H](CCCNC(=N)N)NC(=O)[C@H](Cc2c[nH]c3ccccc23)NC(=O)[C@H](CCCNC(=N)N)NC(=O)[C@H](Cc2c[nH]c3ccccc23)NC(=O)[C@H](CCCNC(=N)N)NC(=O)[C@H](Cc2c[nH]c3ccccc23)NC(=O)[C@H](CCCNC(=N)N)NC(=O)[C@H](Cc2c[nH]c3ccccc23)NC(=O)[C@H](CCCNC(=N)N)NC(=O)[C@H](Cc2c[nH]c3ccccc23)NC(=O)[C@H](CCCNC(=N)N)NC(=O)[C@H](Cc2c[nH]c3ccccc23)NC(=O)[C@H](CCCNC(=N)N)NC(=O)[C@H](Cc2c[nH]c3ccccc23)NC1=O — IC50 (BTK (Homo sapiens, UniProt Q06187); enzyme activity, inhibitor): < 250 nM
CC(=O)C12NC(C)(C)CC1(C)C(=O)C1=C2c2c(c3c4n2C(C)(C)CC2=C4C4(CC(C)(C)NC(C)(C4)C2=O)CC3(C)C)C(=O)C(C)(C)N1 (single isomer, unassigned; (+)) — IC50 (KCNA2 (Homo sapiens, UniProt P16389); ion current, inhibitor, patch clamp): 2200 nM and 4200 nM
O=C1c2oc3cc(O)c(O)cc3c2C(=O)c2oc3cc(O)c(O)cc3c21 — IC50 (Cytochrome P450 2A6 (CYP2A6, Homo sapiens, UniProt P11509); enzyme activity, inhibitor; human, liver microsomes; 1 h, pH 7.4): 5000 nM
CC[C@H](C)[C@H](NC(=O)[C@H](CO)NC(=O)[C@H](Cc1ccc(O)cc1)NC(=O)[C@H](CC(=O)O)NC(=O)[C@H](CO)NC(=O)[C@@H](NC(=O)[C@H](Cc1ccccc1)NC(=O)[C@@H](NC(=O)CNC(=O)[C@H](CCC(=O)O)NC(=O)[C@H](C)NC(=O)[C@@H](N)Cc1ccc(O)cc1)[C@@H](C)O)[C@@H](C)CC)C(=O)N[C@@H](C)C(=O)N[C@@H](CCSC)C(=O)N[C@@H](CC(=O)O)C(=O)N[C@@H](CCCCN)C(=O)N[C@H](C(=O)N[C@@H](CCCNC(=N)N)C(=O)N[C@@H](CCC(N)=O)C(=O)N[C@@H](CCC(N)=O)C(=O)N[C@@H](CC(=O)O)C(=O)N[C@@H](Cc1ccccc1)C(=O)N[C@H](C(=O)N[C@@H](CC(N)=O)C(=O)N[C@@H](Cc1c[nH]c2ccccc12)C(=O)N[C@@H](CC(C)C)C(=O)N[C@@H](CC(C)C)C(=O)N[C@@H](C)C(=O)N[C@@H](CCC(N)=O)C(=O)N[C@@H](CCCNC(=N)N)C(=O)NCC(=O)N[C@@H](CCCCN)C(=O)N[C@@H](CCCCN)C(=O)N[C@@H](CO)C(=O)N[C@@H](CC(=O)O)C(=O)N[C@@H](Cc1c[nH]c2ccccc12)C(=O)N[C@@H](CCCCN)C(=O)N[C@@H](Cc1c[nH]cn1)C(=O)N[C@@H](CC(N)=O)C(=O)N[C@H](C(=O)N[C@H](C(=O)N[C@@H](CCC(N)=O)C(=O)O)[C@@H](C)O)[C@@H](C)CC)C(C)C)[C@@H](C)CC — IC50 (Gastric inhibitory polypeptide receptor (Rattus norvegicus, UniProt P43219); ligand displacement in cells, radioligand): 1.26 nM
CCCCCCCCCCCCCC(=S)NCCCC[C@H](NS(C)(=O)=O)C(=O)N[C@@H](C)C(=O)N[C@@H](CCCNC(=N)N)C(N)=O — IC50 (SIRT2; enzyme activity, inhibitor, HPLC): 16 nM
O=C(O[C@@H]1Cc2c(O)cc(O)cc2O[C@@H]1c1cc(O)c(O)c(O)c1)c1cc(O)c(O)c(O)c1 — IC50 (maltase, rat; enzyme activity, inhibitor; rat intestinal brush border vesicles): 1300 nM
Cc1cc(C)nc(SCC(=O)Nc2ncc(Cc3cccc(OCc4cn(-c5ccc(Cl)cc5)nn4)c3)s2)n1 — IC50 (SIRT2; enzyme activity, inhibitor, fluorescence): 110 nM
C/C=C/C(=O)Nc1ccc2nc(NCCCCCN(C)C)nc(NCCCCCCN(C)C)c2c1 — IC50 (TP53-binding protein 1, tandem tudor domain (Homo sapiens, UniProt Q12888); methyl-lysine binding, TR-FRET): > 100000 nM
NC1(Cc2ccc(Cl)cc2)CCN(c2ncnc3[nH]ccc23)CC1 — IC50 (Trpm7 (Mus musculus, UniProt Q923J1, F924A); calcium signal): 2320 nM
C=CCc1ccc(OCc2nnc(SCC(=O)Nc3ccc(Br)cc3)o2)c(OC)c1 — IC50 (TYMS (Homo sapiens, UniProt P04818); enzyme activity, inhibitor): 2930 nM

Excerpt of the above:
CC[C@H](C)[C@H](NC(=O)[C@H](CO)NC(=O)[C@H](Cc1ccc(O)cc1)NC(=O)[C@H](CC(=O)O)NC(=O)[C@H](CO)NC(=O)[C@@H](NC(=O)[C@H](Cc1ccccc1)NC(=O)[C@@H](NC(=O)CNC(=O)[C@H](CCC(=O)O)NC(=O)[C@H](C)NC(=O)[C@@H](N)Cc1ccc(O)cc1)[C@@H](C)O)[C@@H](C)CC)C(=O)N[C@@H](C)C(=O)N[C@@H](CCSC)C(=O)N[C@@H](CC(=O)O)C(=O)N[C@@H](CCCCN)C(=O)N[C@H](C(=O)N[C@@H](CCCNC(=N)N)C(=O)N[C@@H](CCC(N)=O)C(=O)N[C@@H](CCC(N)=O)C(=O)N[C@@H](CC(=O)O)C(=O)N[C@@H](Cc1ccccc1)C(=O)N[C@H](C(=O)N[C@@H](CC(N)=O)C(=O)N[C@@H](Cc1c[nH]c2ccccc12)C(=O)N[C@@H](CC(C)C)C(=O)N[C@@H](CC(C)C)C(=O)N[C@@H](C)C(=O)N[C@@H](CCC(N)=O)C(=O)N[C@@H](CCCNC(=N)N)C(=O)NCC(=O)N[C@@H](CCCCN)C(=O)N[C@@H](CCCCN)C(=O)N[C@@H](CO)C(=O)N[C@@H](CC(=O)O)C(=O)N[C@@H](Cc1c[nH]c2ccccc12)C(=O)N[C@@H](CCCCN)C(=O)N[C@@H](Cc1c[nH]cn1)C(=O)N[C@@H](CC(N)=O)C(=O)N[C@H](C(=O)N[C@H](C(=O)N[C@@H](CCC(N)=O)C(=O)O)[C@@H](C)O)[C@@H](C)CC)C(C)C)[C@@H](C)CC — IC50 (Gastric inhibitory polypeptide receptor (Rattus norvegicus, UniProt P43219); ligand displacement in cells, radioligand): 1.26 nM
CCCCCCCCCCCCCC(=S)NCCCC[C@H](NS(C)(=O)=O)C(=O)N[C@@H](C)C(=O)N[C@@H](CCCNC(=N)N)C(N)=O — IC50 (SIRT2; enzyme activity, inhibitor, HPLC): 16 nM
